Assay results gathered from unrelated publications.
Each line is one published result; not all experiments were run side by side.
PIK3CA E545A: Phosphatidylinositol 4,5-bisphosphate 3-kinase catalytic subunit alpha isoform (PIK3CA, Homo sapiens, UniProt P42336, E545A)
PIK3CA: Phosphatidylinositol 4,5-bisphosphate 3-kinase catalytic subunit alpha isoform (PIK3CA, Homo sapiens, UniProt P42336)
PIK3CA H1047Y: Phosphatidylinositol 4,5-bisphosphate 3-kinase catalytic subunit alpha isoform (PIK3CA, Homo sapiens, UniProt P42336, H1047Y)

The remaining binding of `CNC(=O)C1CCN(c2cc(C)c(F)cc2NC(=O)c2ccc(-c3cc(O)ccc3C)c(C)c2)CC1` is reported as 100% (Phosphatidylinositol 4,5-bisphosphate 3-kinase catalytic subunit alpha isoform (PIK3CA, Homo sapiens, UniProt P42336, E542K); binding, competition with immobilised ligand; 1 µM).
`C=CC(=O)N1CCCC(n2c(=O)c3ncccc3n(Cc3ccc(Oc4ccccc4)cc3)c2=O)C1` (stereo not drawn) has a remaining binding of 93% (Phosphatidylinositol 4,5-bisphosphate 3-kinase catalytic subunit alpha isoform (PIK3CA, Homo sapiens, UniProt P42336, C420R); cell-free assay, competition with immobilised ligand; 1 µM).
`CCN1CCN(Cc2ccc(C(=O)Nc3ccc(C)c(NCc4cnc5[nH]ccc5c4OC)c3)cc2C(F)(F)F)CC1` gave a remaining binding of 66% (PIK3CA E545A; binding, competition with immobilised ligand; 1 µM).
For `CC(C)=CC1OC(C)(C)C2C=C3C(=O)C(Cl)=CC(O)C3C3C(O)C4OC4C(=O)C132` (stereo not drawn), the remaining binding was 89% (PIK3CA; cell-free assay, competition with immobilised ligand; 10 µM).
With `COc1cc(Nc2nccc(-c3cnn4nc(OC)ccc34)n2)cc(C(F)(F)F)c1` the remaining binding was 78% (PIK3CA; binding, competition with immobilised ligand; 1 µM).
For `Cc1ccc(-c2c(/C=C(\C#N)C(=O)NC(C)C)n(CCCO)c3ncnc(N)c23)cc1`, the remaining binding was 96% (Phosphatidylinositol 4,5-bisphosphate 3-kinase catalytic subunit alpha isoform (PIK3CA, Homo sapiens, UniProt P42336, Q546K); cell-free assay, competition with immobilised ligand; 1 µM).
With `Cc1cnc2nc1Nc1cccc(c1)COC/C=C/COCc1cc(ccc1OCCN1CCOCC1)N2` the remaining binding was 65% (PIK3CA H1047Y; binding; 0.1 µM).
The remaining binding of `CC(=O)c1cnc(N)nc1N1CC[C@H]1c1nn2ccc(Cl)c2c(=O)n1-c1ccccc1` is reported as 46% (PIK3CA E545A; binding, competition with immobilised ligand; 10 µM).
The remaining binding of `C=CC(=O)N1CCc2ccc(-n3c(=O)ccc4cnc5ccc(-c6cnn(C)c6)cc5c43)cc21` is reported as 47% (PIK3CA E545A; KINOMEscan; 1 µM; relative to: DMSO control).
For `CNC1C[S+]2CC[S+]3CC[S+](C1)[Ru-4]321([N]=C=S)[n]2c3ccc(OC)cc3c3c4c(c5cc(F)c[n+]1c5c32)C(=O)NC4=O` (stereo not drawn), the remaining binding was 77% (Phosphatidylinositol 4,5-bisphosphate 3-kinase catalytic subunit alpha isoform (PIK3CA, Homo sapiens, UniProt P42336, M1043I); KinomeScan; 0.1 µM; relative to: untreated).
With `Nc1ncc2c(n1)-c1c([nH]c3ccc(C4=CCOCC4)cc13)CCC2` the remaining binding was 92% (PIK3CA H1047Y; binding, competition with immobilised ligand; 1 µM).
`COc1c(Cl)cccc1Nc1c(-c2ccncc2C#C[C@@]2(C)CCCN2C(=O)/C=C/CN(C)C)[nH]c2c1C(=O)NCC2` has a remaining binding of 73% (PIK3CA; cell-free assay, competition with immobilised ligand; 3 µM).
